Results collected from several papers.
Several values in a cell are separate wells, animals, samples, runs or records. ± gives the spread as reported.
Technique: steady-state kinetics
B1: bxlB (Aspergillus nidulans, UniProt Q5ATH9); chain NYPDCTTGPLSELPICDTSLSPLERAKSLVSALTLEEKINNTGHEAAGSSRLGLPAYNWWNEALHGVAEKHGVSFEESGDFSYATSFPAPIVLGAAFNDALIRRVAEIISTEARAFSNSDHAGIDYWTPNVNPFKDPRWGRGQETPGEDPLHCSRYVKEFVGGLQGDDPEKPKVVATCKHLAAYDLEEWGGVSRFEFDAKVSAVDLLEYYLPPFKTCAVDASVGAFMCSYNALNGVPACADRYLLQTVLREHWGWEGPGHWVTGDCGAVERIQTYHHYVESGPEAAAAALNAGVDLDCGTWLPSYLGEAERQGLISNETLDAALTRLYTSLVQLGYFDPAEGQPLRSLGWDDVATSEAEELAKTVAIQGTVLLKNIDWTLPLKANGTLALIGPFINFTTELQSNYAGPAKHIPTMIEAAERLGYNVLTAPGTEVNSTSTDGFDDALAIAAEADALIFFGGIDNTVEEESLDRTRIDWPGNQEELILELAELGRPLTVVQFGGGQVDDSALLASAGVGAIVWAGYPSQAGGAGVFDVLTGKAAPAGRLPITQYPKSYVDEVPMTDMNLQPGTDNPGRTYRWYEDAVLPFGFGLHYTTFNVSWAKKAFGPYDAATLARGKNPSSNIVDTFSLAVTNTGDVASDYVALVFASAPELGAQPAPIKTLVGYSRASLIKPGETRKVDVEVTVAPLTRATEDGRVVLYPGEYTLLVDVNDEYPTAKFEIKGDVQVLEKFPLSGNDSD
B2: enzyme (Acinetobacter baumannii, UniProt A0A5P1UDB1); chain MFIEQDIQLGYVPFPKSRAQQYRDEGCWKSQTHFQLLASLKDRFAQRVAVIQDDKQLTYQQLYDYAIHYGTYLKQQGIRETDFVLLQSPNVIEVFIVIFGLYAIGARPVFCLHGHGSYEIENIARQSRAVGFLKLCGSANESTATDVCEEFSKPNFKLWFRESIVSRSSIEASLPQLQGVAPAFNLRAQSESEDIAFLQLSGGTTGLPKLIPRTHADYIYSIEKSVDVAGLTQDTKQLVVLPVMHNFCMSSPGFLGVFYVGGTVVLSQLTHPRVCFELIEKYQIQQVSLVPAIATLWLNAESLKDYDLSSLQVVQVGGAKLLPSLAEQIIDTLQVKLQQVYGMAEGLVNFTHLDDSDQITIQTQGKKLSHLDEIRIADQDGNALPINAIGHIQTRGPYTINGYYNLPEINQRAFTQDGFYKTGDIGYLDENLNIVVTGREKEQINRSGEKITPSEIEEFILQYPSVKDVCVIGVSDDYLGERIKAIIIPKLDDSEINLKNIRKFLISKNIAHFKIPDEIEVVADFKYTHVGKVNRQKLG
B3: enzyme (Methylibium petroleiphilum, UniProt A2SI32); chain PFAQIYLIEGRTEEQKRAVIEKVTQAMMEAVGAPKENVRVWIHDVPKENWGIGGVSAKALGR
B4: enzyme (Salinispora arenicola, UniProt A8M783); chain MASTPWISFTTDYGLADGFVAACHGVLARLAPTARVIDVTHLVPPGDVRRGAAVLAQTVPYLPAAVHVAVVDPGVGTARRAIALTAGNGLLVGPDNGLLLDAATALGGVDAAVELTNPDWLGARMSATFHGRDVFAPVAARLALGAPLADAGPAVEPGALVRLPTPLVQPETDGFTAEVLTVDHFGNVQLAATGALLESLPRSLRVAHRPAVHARTFDDAPPGGLLVHVDSAGLVAVAVNGGRAADLLAVTPGDQLRVTAG
B5: aspC A106G/A218G/F210I/I29V/I33V/I68L/I71L/N30D/N64T/S135A/T100S/V136I/V375I (Escherichia coli, UniProt P00509); chain MFENITAAPADPILGLADLFRADERPGKVDLGVGVYKDETGKTPVLTSVKKAEQYLLENETTKTYLGLDGLPEFGRCTQELLFGKGSALINDKRARTAQSPGGTGGLRVAADFLAKNTSVKRVWVSNPSWPNHKAIFNSAGLEVREYAYYDAENHTLDFDALINSLNEAQAGDVVLFHGCCHNPTGIDPTLEQWQTLAQLSVEKGWLPLIDFAYQGFGRGLEEDAEGLRAFAAMHKELIVASSYSKNFGLYNERVGACTLVAADSETVDRAFSQMKAAIRANYSNPPAHGASVVATILSNDALRAIWEQELTDMRQRIQRMRQLFVNTLQEKGANRDFSFIIKQNGMFSFSGLTKEQVLRLREEFGVYAVASGRINVAGMTPDNMAPLCEAIVAVL
B6: SCO6712 S292F/V290N (Streptomyces coelicolor, UniProt Q9XAL8); chain AKGITARTAPAGGEVRHLKMYAEKLADGQMGYGFEKGKASVPGPLIEVNEGDTLHIEFTNTMDVRASLHVHGLDYEISSDGTAMNKSDVEPGGTRTYTWRTHKPGRRDDGTWRPGSAGYWHYHDHVVGTEHGTGGIRNGLYGPVIVRRKGDVLPDATHTIVFNDMTINNRKPHTGPDFEATVGDRVEIVMITHGEYYHTFHMHGHRWADNRTGILTGPDDPSRVIDNKITGPADSFGFQIIAGEGVGAGAWMYHCHNQFHSDMGMVGLFLVKKPDGTIPGYEPHEHGGATAKSGESGEPTGGAAAHEHEH
B7: enzyme A167S/Y136L (Bradyrhizobium diazoefficiens, UniProt Q45222); chain MIQTERAVQQVLEWGRSLTGFADEHAVEAVRGGQYILQRIHPSLRGTSARTGRDPQDETLIVTFYRELALLFWLDDCNDLGLISPEQLAAVEQALGQGVPCALPGFEGCAVLRASLATLAYDRRDYAQLLDDTRCLSAALRAGHAQAVAAERWSYAEYLHNGIDSISYANVFCCLSLLWGLDMATLRARPAFRQVLRLISAIGRLQNDLHGCDKDRSAGEADNAVILLLQRYPAMPVVEFLNDELAGHTRMLHRVMAEERFPAPWGPLIEAMAAIRVQYYRTSTSRYRSDAVRGGQRAPA
B8: enzyme S252E (Schizosaccharomyces pombe, UniProt P78804); chain MSTPYEPEFQQAYKEIVGSIESSKLFEVHPELKRVLPIISIPERVLEFRVTWEDDKGNCRVNTGYRVQFNSALGPYKGGLRFHPSVNLSILKFLGFEQIFKNALTGLPMGGGKGGSDFDPKGKSDNEIRRFSQAFMRQLFRYIGPQTDVPAGDIGVTGFVVMHMFGEYKRLRNEYSGVVTGKHMLTGGSNIRPEATGYGVVYYVKHMIEHRTKGAETLKGKRVAISGSGNVAQYAALKCIQEGAIVKSISDEKGVLIAKTAEGLVPEEIHEIMALKEKRASIADSASLCKKHHYIAGARPWTNVGEIDIALPCATQNEVSGEEAAALIKQGCRYVAEGSNMGSSAEAVEVFEKSRASGEGCWLAPGKAANAGGVAVSGLEMAQNAQFSTWTHAEVDAKLAGIMQNIFEQSTDVASKYCDSGSNNIPSLVDGANIAGFLKVATAMQAVGDWW
B9: enzyme (UniProt A0A097IUE6); chain TKRAMMATVSSLGIDKATGITKPSKVHRNLPYPEVFEHEQKNKEGEVTKNGTFCVSTGAFTGRSPKDKYFVHQSPSCDTLDWGKINVGVAPDVYKNIYEKAVKHYNENVDSMYVFDGYCGTSPKSRKNVRIITELAWQHHFAKNMFIRPDSEKEVENFNPDFTIINACKVLNKDYKELGLNSDVAVIFNVEEKMAVITGTWYGGEMKKGIFSMMNYWLPLDGIMAMHCSANKGKGGDTALFFGLSGTGKTTLSADPDRYLIGDDEHGWDDHGIFNFEGGCYAKTVNLSKDNEPEIYDAIKRDALLENVIIKSDGEPDYTDTSRTENTRVSYPIYHIDNHEPSGMGGHPTSIIFLTCDAFGVLPPVSRLSGGQAMYHFLSGYTAKVAGTERGVTEPTPNFSACFGAAFLTLHPTKYADLLQKKLDKHQTQCFLINTGWTGGGYGVGKRMSIKATRACVNAVLDGSINKANFTNDEVFGFEVPAELPEVPAQVLNPRAAWSDKEKYDNTRIKLAGMFKDNFKKFIKEGATDYSSYGPK
B10: acsA (Pseudomonas chlororaphis, UniProt Q5CD72); chain MRDYEHVVESFDYLQSATQDLHGELTALNACVECCDRHAHGEAVALYCEAQDGHAERYRFRDLQRQAARFGNFLREQGVKPGDRVAGLMPRTVELLIAILGTWRIGAVYQPLFTAFGPKAIEQRLNCSNARWIVTDPHNRPKLDDVTDCPSIVVTGGAPQNPADHHFWSALNRQADDCAPVLLDASAPFLLMCTSGTTGPAKPLEVPLSAILAFKGYMRDAIDLRADDRFWNLADPGWAYGLYYAVTGPLACGYATLFYDGPFTVESTRHIIAKYAINNLAGSPTAYRFLIAAGAEFADAVRGRLRAVSSAGEPLNPQVVRWFAEQLGVVIHDHYGQTEIGMVLCNHHGLRHPVREGSAGYAVPGYRIVVLDKAHRELPAGQPGVLAVDRERSPLCWFDGYLGMPTQAFAGRYYLSGDIVELNDDGSISFVGRNDDLITTSGYRVGPFDVESALIEHPAVVEAAVIGKPDPQRTELIKAFVVLNTPYLPSPELAEELRLHVRQRLAAHAYPREMEFVDHLPKTPSGKLQRFILRNQEIAKQQALG
UniProt Q9C969, sequence (whole entry, looked up): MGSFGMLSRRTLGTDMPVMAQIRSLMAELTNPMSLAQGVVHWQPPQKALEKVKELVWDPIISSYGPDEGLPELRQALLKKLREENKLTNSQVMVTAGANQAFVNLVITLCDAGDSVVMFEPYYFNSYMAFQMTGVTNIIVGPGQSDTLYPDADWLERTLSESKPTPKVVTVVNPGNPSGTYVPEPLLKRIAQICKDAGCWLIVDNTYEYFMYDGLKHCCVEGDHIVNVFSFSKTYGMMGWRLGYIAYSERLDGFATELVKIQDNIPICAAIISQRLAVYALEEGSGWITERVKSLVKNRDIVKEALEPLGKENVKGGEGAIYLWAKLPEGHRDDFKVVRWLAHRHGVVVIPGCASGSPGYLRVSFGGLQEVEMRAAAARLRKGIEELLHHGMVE
UniProt P11446, sequence (whole entry, looked up): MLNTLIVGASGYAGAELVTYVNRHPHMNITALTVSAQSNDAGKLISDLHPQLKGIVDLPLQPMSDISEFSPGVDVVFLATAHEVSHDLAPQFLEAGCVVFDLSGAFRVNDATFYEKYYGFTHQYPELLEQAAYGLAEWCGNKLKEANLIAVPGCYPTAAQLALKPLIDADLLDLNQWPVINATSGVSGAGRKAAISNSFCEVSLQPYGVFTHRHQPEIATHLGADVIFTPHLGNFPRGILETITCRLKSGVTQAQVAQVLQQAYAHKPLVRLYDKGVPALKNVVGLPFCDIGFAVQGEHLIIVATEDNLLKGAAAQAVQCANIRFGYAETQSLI
UniProt P09546, sequence (whole entry, looked up): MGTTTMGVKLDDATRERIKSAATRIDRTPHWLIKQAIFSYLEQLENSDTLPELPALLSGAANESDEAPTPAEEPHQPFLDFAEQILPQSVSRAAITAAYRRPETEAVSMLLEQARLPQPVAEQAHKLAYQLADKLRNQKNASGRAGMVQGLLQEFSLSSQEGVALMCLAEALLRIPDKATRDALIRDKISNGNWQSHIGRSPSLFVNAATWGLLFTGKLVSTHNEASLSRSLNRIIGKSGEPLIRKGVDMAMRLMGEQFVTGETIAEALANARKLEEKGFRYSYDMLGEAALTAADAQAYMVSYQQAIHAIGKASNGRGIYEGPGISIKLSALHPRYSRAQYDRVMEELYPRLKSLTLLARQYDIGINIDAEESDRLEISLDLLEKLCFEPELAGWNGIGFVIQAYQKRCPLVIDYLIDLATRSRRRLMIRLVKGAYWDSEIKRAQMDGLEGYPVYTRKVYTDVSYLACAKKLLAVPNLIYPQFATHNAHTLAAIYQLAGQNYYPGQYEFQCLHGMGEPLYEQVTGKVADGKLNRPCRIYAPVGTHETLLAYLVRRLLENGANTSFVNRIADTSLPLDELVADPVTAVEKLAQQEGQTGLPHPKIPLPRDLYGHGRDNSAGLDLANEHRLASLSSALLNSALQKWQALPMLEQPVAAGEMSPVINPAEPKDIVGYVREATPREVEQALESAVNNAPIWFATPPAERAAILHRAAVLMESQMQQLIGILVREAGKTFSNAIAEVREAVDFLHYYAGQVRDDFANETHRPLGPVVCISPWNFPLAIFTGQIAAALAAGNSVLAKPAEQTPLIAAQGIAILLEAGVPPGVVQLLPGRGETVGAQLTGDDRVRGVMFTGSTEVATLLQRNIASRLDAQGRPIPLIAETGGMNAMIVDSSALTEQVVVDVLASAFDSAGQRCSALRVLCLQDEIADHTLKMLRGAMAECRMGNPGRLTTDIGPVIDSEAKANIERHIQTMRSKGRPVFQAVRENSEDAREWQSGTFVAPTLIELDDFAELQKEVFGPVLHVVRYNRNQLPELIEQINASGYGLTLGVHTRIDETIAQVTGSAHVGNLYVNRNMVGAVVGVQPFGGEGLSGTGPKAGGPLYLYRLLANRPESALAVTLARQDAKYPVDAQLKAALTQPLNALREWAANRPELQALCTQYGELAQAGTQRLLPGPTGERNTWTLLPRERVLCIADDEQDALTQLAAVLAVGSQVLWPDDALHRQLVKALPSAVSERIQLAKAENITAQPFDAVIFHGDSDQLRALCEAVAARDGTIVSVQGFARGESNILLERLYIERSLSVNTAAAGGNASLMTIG

enzyme (Nitrosopumilus maritimus, UniProt A9A5X4)
kcat/Km (N[C@H](COP(=O)(O)O)Cc1c[nH]cn1; pH 7.8, 25 °C): 10800 ± 2500 M⁻¹ s⁻¹

B1 (bxlB)
kcat/Km (O=[N+]([O-])c1ccc(O[C@@H]2OC[C@@H](O)[C@H](O)[C@H]2O)cc1; pH 5, 50 °C): 15700 M⁻¹ s⁻¹

argC (Escherichia coli, UniProt P11446)
kcat/Km (N[C@@H](CCC=O)C(=O)O; pH 7.6, apparent, with: 1 mM NADP+): 70 ± 1 M⁻¹ s⁻¹

B2 (enzyme)
kcat/Km (O=C(O)c1cccc(O)c1O; pH 7.5, 37 °C, apparent): 946 M⁻¹ s⁻¹

HNL E79H/H103V/K236M/T11G (Hevea brasiliensis)
kcat/Km (CC(=O)Oc1ccc([N+](=O)[O-])cc1; pH 7.2, 22 °C): 8.17 M⁻¹ s⁻¹

putA (Escherichia coli, UniProt P09546)
kcat/Km (CC1=CC(=O)c2ccccc2C1=O; pH 7.4, 20 °C, with: proline 200 mM): 44000 ± 3100 M⁻¹ s⁻¹

B3 (enzyme)
kcat/Km (O=C(O)/C=C/C=C(\O)C(=O)O; pH 7.3, 24 °C): 3.3e+07 M⁻¹ s⁻¹

B4 (enzyme)
kcat/Km (C[S+](CC[C@H](N)C(=O)O)C[C@H]1O[C@@H](n2cnc3c(N)ncnc32)[C@H](O)[C@@H]1O; pH 7.9, 37 °C, apparent, with: 1-200 µM SAM): 7500 M⁻¹ s⁻¹

enzyme (Arabidopsis thaliana, UniProt Q9C969)
kcat/Km (O=C(O)C(=O)Cc1cccc(C(=O)O)c1): 502000 M⁻¹ s⁻¹ and 460000 M⁻¹ s⁻¹ and 472000 M⁻¹ s⁻¹

B5
kcat/Km (N[C@@H](Cc1ccccc1)C(=O)O; pH 7.5, 25 °C, with: PLP 20 µM): 13000 M⁻¹ s⁻¹

B6 (SCO6712 S292F/V290N)
kcat/Km (CCn1c(=NN=c2sc3cc(S(=O)(=O)O)ccc3n2CC)sc2cc(S(=O)(=O)O)ccc21; pH 7, 37 °C, NaCl 150 mM, with: O2 cosubstrate): 2000 ± 200 M⁻¹ s⁻¹

spt R378K (Sphingomonas paucimobilis)
kcat/Km (CCCCCCCCCCCCCC(=O)SCCNC(=O)CCNC(=O)[C@H](O)C(C)(C)COP(=O)(O)OP(=O)(O)OC[C@H]1O[C@@H](n2cnc3c(N)ncnc32)[C@H](O)[C@@H]1OP(=O)(O)O; with: PLP): 2000 M⁻¹ s⁻¹

B7 (enzyme A167S/Y136L)
kcat/Km (C=C1CC[C@@H]2C(C)(C)CCC[C@@]2(C)[C@@H]1CC/C(C)=C/COP(=O)(O)OP(=O)(O)O): 13000 M⁻¹ s⁻¹

enzyme Y41F (Homo sapiens, UniProt Q08623)
kcat/Km (O=c1[nH]cc([C@@H]2O[C@H](COP(=O)(O)O)[C@@H](O)[C@H]2O)c(=O)[nH]1; pH 7, 25 °C): 600000 M⁻¹ s⁻¹

gdh N192L (Bacillus subtilis)
kcat/Km (NC(=O)c1ccc[n+]([C@@H]2O[C@H](COP(=O)(O)OP(=O)(O)OC[C@H]3O[C@@H](n4cnc5c(N)ncnc54)[C@H](O)[C@@H]3O)[C@@H](O)[C@H]2O)c1; pH 7, 40 °C): 15800 ± 667 M⁻¹ s⁻¹

enzyme (UniProt Q83XK4)
kcat/Km (NC(=O)C1=CN([C@@H]2O[C@H](COP(=O)(O)OP(=O)(O)OC[C@H]3O[C@@H](n4cnc5c(N)ncnc54)[C@H](O)[C@@H]3O)[C@@H](O)[C@H]2O)C=CC1; pH 7, 30 °C, cofactor varied): 3400 M⁻¹ s⁻¹

B8 (enzyme S252E)
kcat/Km (NC(=O)c1ccc[n+]([C@@H]2O[C@H](COP(=O)(O)OP(=O)(O)OC[C@H]3O[C@@H](n4cnc5c(N)ncnc54)[C@H](O)[C@@H]3O)[C@@H](O)[C@H]2O)c1; pH 7, 30 °C, apparent): 89 ± 9 M⁻¹ s⁻¹

B9 (enzyme)
kcat/Km (O=C(O)CC(=O)C(=O)O; pH 7.5, 25 °C): 350000 M⁻¹ s⁻¹

B10 (acsA)
kcat/Km (C#CCCC(=O)O; pH 7): 50 ± 16.7 M⁻¹ s⁻¹

Excerpt of the above:
B8 (enzyme S252E)
kcat/Km (NC(=O)c1ccc[n+]([C@@H]2O[C@H](COP(=O)(O)OP(=O)(O)OC[C@H]3O[C@@H](n4cnc5c(N)ncnc54)[C@H](O)[C@@H]3O)[C@@H](O)[C@H]2O)c1; pH 7, 30 °C, apparent): 89 ± 9 M⁻¹ s⁻¹

B9 (enzyme)
kcat/Km (O=C(O)CC(=O)C(=O)O; pH 7.5, 25 °C): 350000 M⁻¹ s⁻¹
